Results of several laboratories.
Lines come from different studies, so protocols differ. “And” joins repeats or separate records; there may be more than shown. ± gives the spread as reported.

SMILES	cell line	assay	system	conditions	how to read	quantity	value
c1ccc2[nH]ccc2c1	HCT-8	RNA-seq, item: NGFR		concentration not given		mRNA level, LS mean	5.67 counts per million
Cn1cc(Nc2nccc(-c3ccc4c(c3)CN(C3COC3)CC[C@H]4NC(=O)c3cn(C(C)(C)C)nn3)n2)cn1	human B cells			100 nM, 64 h, stimulation-downregulated genes, with: CD40L, anti-IgM, IL-4		number of upregulated genes	28
CN(C)C(=O)c1cc2cnc(Nc3ccc(N4CCNCC4)cn3)nc2n1C1CCCC1	human neutrophils	enzyme immunoassay		1 to 10 µM, with: fMLF		cAMP level	increased
CCCCc1oc2ccc(NS(C)(=O)=O)cc2c1C(=O)c1ccc(OCCCN(CCCC)CCCC)cc1	human embryonic stem cell aggregates	mRNA level, microarray, item: TBX3		0.5 µM, 120 h	reference: untreated, down-regulated	fold change	2.8 fold
O=C(O)Cc1ccccc1Nc1c(Cl)cccc1Cl	HepG2	item: BiP protein		24 h, distribution mode 1		point of departure	126 µM
CCCN1CCN(c2ccc3[nH]c(-c4ccc5[nH]c(-c6ccc(OCC)c(OCC)c6)nc5c4)nc3c2)CC1	SNB-75	SRB		10 µM, 48 h		growth percent	-77.9%
C#C[C@@]1(O)[C@@H](CO)O[C@@H](n2ccc3c(N)ncnc32)[C@@H]1O	NCI60 panel	cell viability		mean over panel		LC50	-4.32 log M
CCCC(=O)Oc1c(C)c(O)c(C(=O)/C=C/c2ccccc2)c(OC)c1C	FaDu	SRB			reference: normal over FaDu IC50	selectivity index	1.05
Cc1ccc(Cn2cc(COc3cccc(Cc4cnc(NC(=O)CSc5nc(C)cc(C)n5)s4)c3)nn2)cc1	PC-3M-luc	colony formation, colony forming		1 µM		inhibition	4.8 ± 3.1%
C=CCn1c(=O)c2cnc(Nc3ccc(N4CCN(C)CC4)cc3)nc2n1-c1ccc2c(n1)[C@@](O)(CC)CC2	Kuramochi	flow cytometry		concentration not given, G1 phase		γH2AX-positive cells	27.5%
NNc1nc(-c2ccc(Cl)cc2)c2c(NC(=O)c3ccccc3)nnc-2[nH]1	MDA-MB-231/ATCC	NCI60 SRB		10 µM		growth percent	77%
Nc1cccc2c1C(=O)N(C1CCC(=O)NC1=O)C2=O (stereo not shown)	RPMI-8226	flow cytometry, item: CD127		concentration not given	reference: comparator compound alone	surface marker level	188%
CC(C)(C)C(=O)Oc1ccc(S(=O)(=O)Nc2ccccc2C(=O)NCC(=O)O)cc1	human peripheral blood neutrophils	flow cytometry FSC/SSC		50 µM, with: TNF-α 5 ng/mL, MPO-ANCA immune complex	reference: unstimulated neutrophils	neutrophil swelling	2.62 fold change and 2.19 fold change and 3.95 fold change and 3.03 fold change
CC(=O)c1nn(-c2ccc(Cl)cc2)/c(=N/N=C(\C)c2ccc(NC(=O)c3ccc(Cl)cc3)cc2)s1	MCF7			1.25 µM		viability	99.3%
CCn1cc(-c2cc(Cn3ccnc3)cc3c2CCN([C@H](c2cc(OC)ccn2)C2CC2)C3=O)c(C(F)(F)F)n1	U266B1	cell growth		120 h		EC50	> 30000 nM
CC/C(=N\NC(=O)C(C)Nc1ccccc1)c1ccc(O)c(C)c1O (stereo not shown)	SK-OV-3	Western blot, item: YAP		10 µM, 3 h, 3D gellan gum culture, unit not given	reference: β-actin	protein level	1.24 ± 0.36
CCn1cc(-c2cc(Cn3ccoc3=N)cc3c2CCN([C@@H](C)c2cc(OC)ccn2)C3=O)c(C(F)(F)F)n1	FaDu	cell growth, inhibitor		120 h		EC50	955 nM
O=C(/C=C/C=C/C=C/C1CCCCC1)NC1=C[C@@](O)(/C=C/C=C/C=C/C(=O)NC2=C(O)CCC2=O)[C@@H]2O[C@@H]2C1=O	SBC-5	cell growth, CellTiter-Glo		78 h		GI50	> 30000 nM
COc1cc(NC(C)CCCN)c2ncccc2c1 (stereo not shown)	MYBPC3 mutant iPSC-derived cardiomyocytes	item: MyBP-C		concentration not given, fresh powder		activity on retest	inactive
Cc1cc(Nc2ncc(Cl)c(Nc3ccccc3S(=O)(=O)C(C)C)n2)c(OC(C)C)cc1C1CCNCC1	CLB-BAR	phosphoproteomics LC-MS/MS, item: SHC2 phosphorylation		200 nM, 60 min	reference: untreated	log2 fold change	-1.83
O=C(CCCCCCC(=O)Nc1ccccc1)NO	MCF-10A	CellTiter-Glo		concentration not given	reference: normalised, mean of replicates	viability	55.6%
C=CC1=C(C)c2cc3[n-]c(cc4nc(cc5[n-]c(cc1n2)c(C)c5C=C)C(C)=C4CCC(=O)O)c(CCC(=O)O)c3C.[Zn+2]	SH-SY5Y	RNA-seq, item: FGF5 mRNA		5 µM, 5 h	reference: untreated cells	fold change	2.69
Cn1cc(-c2ccc(-c3cncc(Cl)c3N3CCC4(CCNC4=O)CC3)cc2)cn1	COLO 205	gene expression, microarray, item: HIST1H4H mRNA		concentration not given, 6 h	reference: untreated cells	log2 fold change	-2.48

SMILES	cell line	assay	system	conditions	how to read	quantity	value
CCCCCC(=O)Oc1c(C)c(O)c(C(=O)/C=C/c2ccccc2)c(OC)c1C	FaDu	SRB			reference: normal over FaDu IC50	selectivity index	1.24
CC(=O)c1n[nH]c2ccc(-c3cnc4ccc(N(C)C5CCOCC5)nn34)cc12	DAP12-Fluc expressing cells			concentration not given, counter-screen		change in reporter signal	24 ± 6%
Cn1c(Nc2nc3ccc(C(F)(F)F)cc3s2)nc2cc(C(=O)NCCOCCO)ccc21	SH-SY5Y	RNA-seq, item: KLF6 mRNA		5 µM, 5 h	reference: untreated cells	fold change	1.86
CCOC(=O)CSc1nc(-c2ccc(Cl)cc2)c2c(NC(=O)c3ccccc3)nnc-2[nH]1	MDA-MB-231/ATCC	NCI60 SRB		10 µM		growth percent	93.9%
CC/C(=N\NC(=O)NCc1cccc(O)c1)c1ccc(O)c(C)c1O	SK-OV-3	Western blot, item: LATS		1 µM, 1 h, 2D culture, unit not given	reference: β-actin	protein level	0.99 ± 0.41
Nc1ncnc2c1ncn2[C@@H]1O[C@H](CO)[C@@H](O)[C@H]1O	activated human T cells	item: dihydroorotate		30 µM	reference: DMSO	log2 fold change	6.1 and 6.4 and 6.5
C[C@H]1Oc2cc(cnc2N)-c2c(nn(C)c2C#N)CN(C)C(=O)c2ccc(F)cc21	Ba/F3 EML4-ALK v1	cell viability				IC50	19.8 nM
COc1cnc2cccc(N3CCc4c(cc(Cn5ccnc5C)cc4-c4cn(C)nc4C(F)(F)F)C3=O)c2c1	SNU1079	cell growth		120 h		EC50	282 nM
COc1ccc(NC(=O)c2c(Nc3ccccc3)sc(C#N)c2NC(=O)CNc2ccc(Cl)cc2)cc1	HepG2	annexin V-FITC/PI		concentration not given		early apoptotic cells	5.47 ± 0.42%
CSCC[C@H](NC(=O)[C@H](Cc1ccc(OS(=O)(=O)O)cc1)NC(=O)[C@@H](N)CC(=O)O)C(=O)NCC(=O)N[C@@H](Cc1c[nH]c2ccccc12)C(=O)N[C@@H](CCSC)C(=O)N[C@@H](CC(=O)O)C(=O)N[C@@H](Cc1ccccc1)C(N)=O	HEK293T control virus	agonist, GloSensor cAMP		0.001024 nM, no receptor expressed	higher = more cAMP	cAMP accumulation	0.139 a.u.
C[C@@H]1CN(C(=O)c2ccc(NC(=O)c3cc(O[C@H](C)c4c(Cl)ccc(F)c4Cl)c(N)nn3)cc2)C[C@H](C)N1	Ba/F3 EML4-ALK variant 1 S1206Y	cell viability				Emax	100%
COC(=O)Nc1nc2ccc(C(=O)c3cccs3)cc2[nH]1	tsFT210 G2-synchronised	flow cytometry		100 nM, 4 h after release at 32 °C		sub-G1 cells	2.9%
Cn1cc(-n2cnc3c(NCc4nc5cc(Cl)c(Cl)cc5[nH]4)nc(N4CCOCC4)nc32)cn1	MDA-MB-231	cell viability, CellCounting-Lite		2.743 nM, 37 °C	higher = more viable cells	luminescence signal	417000 a.u. and 421000 a.u. and 429000 a.u.
N#Cc1ccc(C[C@@H](Nc2ncc(-c3ccc(F)cc3)o2)C(=O)N2CCc3ccccc32)cc1	human neutrophils	calcium mobilization, agonist				EC50	> 50000 nM
Cc1cccc(-c2[nH]c(CNc3ccccc3F)nc2-c2ccc3ncnn3c2)n1	MM1.S pomalidomide-resistant	XTT		0.5 µM	reference: untreated	viability	98%
Cc1cnc2ccc3c(c2n1)N1CCC(O)N=C1N3C (stereo not shown)	BALB/c 3T3	colony forming efficiency		5 µM		colony number	24 colonies per plate and 25 colonies per plate and 27 colonies per plate
Cc1cc(NC(=O)c2cccc(NC(=O)/C=C/CN(C)C)c2)ccc1Nc1nccc(-c2cccnc2)n1	HEK293 AP1 reporter cells	AP-1 reporter gene, inhibitor		3 µM, 6 h, unit not given, with: PMA	reference: PMA alone	reporter activity	0.95
Cc1[nH]c2ccccc2c1CCNCc1ccc(/C=C/C(=O)NO)cc1	A2780/CP	annexin V/PI flow cytometry		concentration not given, 48 h	reference: untreated	early apoptotic cells	28.7 ± 2%
CC(C)NCC(O)c1ccc(O)c(O)c1 (stereo not shown)	mouse ventricular cardiomyocytes			dose not given, 0.104 s		sarcomere length	1.7 µm
O=C(O)c1cc(Cl)ccc1S(=O)(=O)NCCCCN1C(=O)c2cccc3cccc(c23)C1=O	Lgr5+ stem cells	lineage tracing	mouse intestinal enteroids	concentration not given, day 3 post-irradiation, 5 Gy, pretreated		Tdtomato+ crypt cells	11.6 ± 0.6 cells/50µm
S=C([S][Au-][P+](CCCCCC[P+]([Au-][S]C(=S)n1cccn1)(c1ccccc1)c1ccccc1)(c1ccccc1)c1ccccc1)n1cccn1	MDA-MB-231/ATCC	cell growth, NCI-60 screen		breast cancer		log TGI	> -4 log10 M
COc1cc(N2CCC(N3CCN(C)CC3)CC2)ccc1Nc1ncc(Cl)c(Nc2ccccc2P(C)(C)=O)n1	NCI-H2228 (EML4-ALK variant 3)	cell viability				Emax	38.4%
Cl	human neutrophils	anion exchange, substrate, trans-stimulated sulfate efflux		external binding site		Km	~25 mM

For quick reference, copied from above:
SMILES	cell line	assay	system	conditions	how to read	quantity	value
CCCN1CCN(c2ccc3[nH]c(-c4ccc5[nH]c(-c6ccc(OCC)c(OCC)c6)nc5c4)nc3c2)CC1	SNB-75	SRB		10 µM, 48 h		growth percent	-77.9%
C#C[C@@]1(O)[C@@H](CO)O[C@@H](n2ccc3c(N)ncnc32)[C@@H]1O	NCI60 panel	cell viability		mean over panel		LC50	-4.32 log M
CCCC(=O)Oc1c(C)c(O)c(C(=O)/C=C/c2ccccc2)c(OC)c1C	FaDu	SRB			reference: normal over FaDu IC50	selectivity index	1.05
Cc1ccc(Cn2cc(COc3cccc(Cc4cnc(NC(=O)CSc5nc(C)cc(C)n5)s4)c3)nn2)cc1	PC-3M-luc	colony formation, colony forming		1 µM		inhibition	4.8 ± 3.1%
C=CCn1c(=O)c2cnc(Nc3ccc(N4CCN(C)CC4)cc3)nc2n1-c1ccc2c(n1)[C@@](O)(CC)CC2	Kuramochi	flow cytometry		concentration not given, G1 phase		γH2AX-positive cells	27.5%
NNc1nc(-c2ccc(Cl)cc2)c2c(NC(=O)c3ccccc3)nnc-2[nH]1	MDA-MB-231/ATCC	NCI60 SRB		10 µM		growth percent	77%
